Measurements of several laboratories.
Lines come from different studies, so protocols differ. Numbers after ± are the reported error.
cofactor-independent phosphoglycerate mutase W431C: cofactor-independent phosphoglycerate mutase (Metamycoplasma orale, UniProt A0A448ZXM1, W431C)
Sequence of UniProt O95665 (whole entry, looked up): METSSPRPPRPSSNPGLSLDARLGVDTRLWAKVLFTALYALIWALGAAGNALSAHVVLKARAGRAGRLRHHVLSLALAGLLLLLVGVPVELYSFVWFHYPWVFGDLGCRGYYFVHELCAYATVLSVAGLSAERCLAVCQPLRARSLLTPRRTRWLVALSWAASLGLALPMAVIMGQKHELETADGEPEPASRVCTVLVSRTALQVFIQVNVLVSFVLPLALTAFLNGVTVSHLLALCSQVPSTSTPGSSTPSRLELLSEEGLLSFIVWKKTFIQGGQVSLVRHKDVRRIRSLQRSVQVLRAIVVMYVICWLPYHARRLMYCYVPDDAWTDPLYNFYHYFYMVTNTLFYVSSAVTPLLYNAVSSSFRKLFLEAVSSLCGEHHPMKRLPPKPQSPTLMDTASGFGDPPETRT
Sequence of UniProt P35372 (whole entry, unmodified, looked up): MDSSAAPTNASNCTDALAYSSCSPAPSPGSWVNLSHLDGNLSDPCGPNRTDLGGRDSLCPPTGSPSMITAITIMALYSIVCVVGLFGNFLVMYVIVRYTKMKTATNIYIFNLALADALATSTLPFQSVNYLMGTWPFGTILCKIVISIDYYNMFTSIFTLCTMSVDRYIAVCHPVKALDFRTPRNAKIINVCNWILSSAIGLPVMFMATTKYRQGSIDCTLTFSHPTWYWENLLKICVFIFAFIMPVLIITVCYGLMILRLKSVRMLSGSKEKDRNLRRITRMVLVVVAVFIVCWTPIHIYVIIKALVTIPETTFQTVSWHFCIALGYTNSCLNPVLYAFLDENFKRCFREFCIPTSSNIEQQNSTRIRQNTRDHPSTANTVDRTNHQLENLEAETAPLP
Sequence of UniProt Q15761 (whole entry, looked up): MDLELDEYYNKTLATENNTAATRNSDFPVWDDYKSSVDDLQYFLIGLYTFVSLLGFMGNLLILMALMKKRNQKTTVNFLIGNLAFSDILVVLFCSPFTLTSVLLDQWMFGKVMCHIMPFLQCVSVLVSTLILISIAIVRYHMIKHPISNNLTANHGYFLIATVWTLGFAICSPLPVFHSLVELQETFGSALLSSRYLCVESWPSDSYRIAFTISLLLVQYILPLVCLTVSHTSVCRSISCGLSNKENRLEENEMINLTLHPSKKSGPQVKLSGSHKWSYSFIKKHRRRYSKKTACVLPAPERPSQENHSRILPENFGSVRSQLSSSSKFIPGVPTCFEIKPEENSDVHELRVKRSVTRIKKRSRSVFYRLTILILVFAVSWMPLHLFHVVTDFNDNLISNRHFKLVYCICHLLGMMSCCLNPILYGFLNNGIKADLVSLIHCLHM
Sequence of UniProt P20309 (whole entry, unmodified, looked up): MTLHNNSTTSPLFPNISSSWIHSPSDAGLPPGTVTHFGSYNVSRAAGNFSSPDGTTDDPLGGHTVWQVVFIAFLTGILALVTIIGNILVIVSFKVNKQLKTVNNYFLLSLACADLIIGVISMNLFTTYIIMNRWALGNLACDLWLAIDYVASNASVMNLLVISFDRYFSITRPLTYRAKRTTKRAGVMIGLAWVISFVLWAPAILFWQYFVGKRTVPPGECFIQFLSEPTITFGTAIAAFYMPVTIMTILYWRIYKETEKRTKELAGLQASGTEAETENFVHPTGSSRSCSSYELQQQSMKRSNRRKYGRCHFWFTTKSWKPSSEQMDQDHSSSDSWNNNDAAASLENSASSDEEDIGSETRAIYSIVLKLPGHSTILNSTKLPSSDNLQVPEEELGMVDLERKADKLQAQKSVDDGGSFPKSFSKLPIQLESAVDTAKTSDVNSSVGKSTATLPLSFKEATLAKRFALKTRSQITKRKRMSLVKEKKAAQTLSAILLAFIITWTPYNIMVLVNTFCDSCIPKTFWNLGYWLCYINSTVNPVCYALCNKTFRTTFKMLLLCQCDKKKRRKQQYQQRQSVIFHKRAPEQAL
Sequence of UniProt G5EFZ1 (whole entry, looked up): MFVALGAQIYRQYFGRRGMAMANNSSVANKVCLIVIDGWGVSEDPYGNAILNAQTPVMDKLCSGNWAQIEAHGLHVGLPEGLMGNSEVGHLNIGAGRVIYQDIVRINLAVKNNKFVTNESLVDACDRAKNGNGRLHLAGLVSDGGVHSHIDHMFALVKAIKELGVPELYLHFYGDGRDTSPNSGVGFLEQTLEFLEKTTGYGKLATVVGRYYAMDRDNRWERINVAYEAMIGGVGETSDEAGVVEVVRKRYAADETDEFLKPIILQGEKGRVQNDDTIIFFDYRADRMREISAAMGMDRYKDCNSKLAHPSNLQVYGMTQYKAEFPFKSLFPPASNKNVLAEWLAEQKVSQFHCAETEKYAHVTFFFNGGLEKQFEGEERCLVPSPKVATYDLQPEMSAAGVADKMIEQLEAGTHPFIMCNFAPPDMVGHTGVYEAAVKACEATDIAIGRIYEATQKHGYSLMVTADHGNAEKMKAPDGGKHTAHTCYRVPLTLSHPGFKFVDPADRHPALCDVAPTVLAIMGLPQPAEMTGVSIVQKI
Sequence of UniProt P47746 (whole entry, looked up): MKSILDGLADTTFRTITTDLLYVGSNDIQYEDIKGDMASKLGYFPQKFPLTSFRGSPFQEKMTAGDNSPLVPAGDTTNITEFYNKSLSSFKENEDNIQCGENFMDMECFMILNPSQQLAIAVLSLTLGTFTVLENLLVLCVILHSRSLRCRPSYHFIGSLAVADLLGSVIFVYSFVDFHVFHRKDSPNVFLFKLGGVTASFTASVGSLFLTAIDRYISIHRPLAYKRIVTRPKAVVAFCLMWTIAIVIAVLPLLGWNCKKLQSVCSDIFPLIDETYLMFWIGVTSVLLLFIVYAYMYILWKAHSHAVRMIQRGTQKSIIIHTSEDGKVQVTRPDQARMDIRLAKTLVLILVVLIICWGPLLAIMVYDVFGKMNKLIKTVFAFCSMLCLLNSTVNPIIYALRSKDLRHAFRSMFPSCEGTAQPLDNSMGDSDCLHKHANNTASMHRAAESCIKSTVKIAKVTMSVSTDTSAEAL
Sequence of UniProt P25929 (whole entry, looked up): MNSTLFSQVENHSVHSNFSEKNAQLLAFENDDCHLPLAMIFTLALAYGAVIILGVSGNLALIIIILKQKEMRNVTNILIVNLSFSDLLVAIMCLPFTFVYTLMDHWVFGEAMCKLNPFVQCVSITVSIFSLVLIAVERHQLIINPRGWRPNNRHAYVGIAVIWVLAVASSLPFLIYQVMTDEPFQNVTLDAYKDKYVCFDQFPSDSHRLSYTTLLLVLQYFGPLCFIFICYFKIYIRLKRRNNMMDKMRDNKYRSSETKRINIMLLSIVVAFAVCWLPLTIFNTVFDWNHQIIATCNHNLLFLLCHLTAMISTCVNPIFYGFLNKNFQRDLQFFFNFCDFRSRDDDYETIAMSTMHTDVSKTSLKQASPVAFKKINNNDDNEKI
Sequence of UniProt Q07741 (whole entry, looked up): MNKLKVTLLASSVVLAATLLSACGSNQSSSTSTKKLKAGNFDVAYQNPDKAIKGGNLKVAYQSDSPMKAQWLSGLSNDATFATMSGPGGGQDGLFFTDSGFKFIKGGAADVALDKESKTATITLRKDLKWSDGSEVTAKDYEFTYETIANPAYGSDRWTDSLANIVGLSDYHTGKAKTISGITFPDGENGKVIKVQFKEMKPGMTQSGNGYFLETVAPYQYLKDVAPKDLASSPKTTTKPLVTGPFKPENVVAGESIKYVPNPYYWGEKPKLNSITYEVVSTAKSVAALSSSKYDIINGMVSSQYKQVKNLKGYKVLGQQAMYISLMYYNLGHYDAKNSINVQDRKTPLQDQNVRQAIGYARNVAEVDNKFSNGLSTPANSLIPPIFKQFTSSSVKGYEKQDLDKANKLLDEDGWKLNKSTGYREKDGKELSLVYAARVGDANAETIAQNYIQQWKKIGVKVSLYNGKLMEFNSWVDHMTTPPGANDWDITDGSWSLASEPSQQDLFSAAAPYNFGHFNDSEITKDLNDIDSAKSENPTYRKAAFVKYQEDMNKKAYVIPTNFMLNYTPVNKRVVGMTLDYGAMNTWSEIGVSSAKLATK

Structure (SMILES)	target	test	system	conditions	how to read	quantity	result
CCCC[C@H]1C(=O)N2CCC[C@H]2C(=O)N[C@H](C(N)=O)CSCC(=O)N[C@@H](Cc2ccc(O)cc2)C(=O)N(C)[C@@H](Cc2ccc(OC)cc2)C(=O)N[C@@H](CCCNC(=N)N)C(=O)N(C)[C@@H](Cc2ccccc2)C(=O)N[C@@H](CC(=O)O)C(=O)N(C)[C@@H](CO)C(=O)N(C)[C@@H](Cc2ccc(O)cc2)C(=O)N[C@@H](CCC(N)=O)C(=O)N[C@@H](CO)C(=O)N(C)[C@@H](CO)C(=O)N(C)[C@@H](Cc2ccc(OC)cc2)C(=O)N[C@@H](C(C)C)C(=O)N(C)[C@@H](Cc2ccc(O)cc2)C(=O)N1C	ipgm-1 (Caenorhabditis elegans, UniProt G5EFZ1)	enzyme activity				AC50	6.46 µM
Cc1cc2c(cc1Cl)-c1c(c(C(=O)NC(C)C3CCCCC3)nn1-c1ccc(Cl)cc1Cl)C2 (stereo not shown)	Cannabinoid receptor 1 (Cnr1, Mus musculus, UniProt P47746)	binding, radioligand displacement	mouse brain homogenate without cerebellum	together with: [3H]CP-55,940		Ki	2.95 ± 0.55 µM
C=CC(=O)N1CCC[C@@H](n2nc(-c3ccc(Cl)cc3)c3c(N)ncnc32)C1	Src family kinases				baseline: wild type over S245C	Ki ratio	≥ 50 fold
C[C@@H](O)[C@H](NC(=O)[C@H]1NC(=O)[C@H]([C@@H](C)O)NC(=O)[C@H](CCCN)NC(=O)[C@@H](Cc2c[nH]c3ccccc23)NC(=O)[C@H](Cc2ccc(O)cc2)NC(=O)[C@@H](NC(=O)[C@H](N)Cc2ccccc2)CSSC1(C)C)C(N)=O	Mu-type opioid receptor (OPRM1, Homo sapiens, UniProt P35372, C348A/C353A)	cell-free assay				Ki	0.00032 µM
CC(C)[C@@H]1NC(=O)[C@H](CCC(N)=O)NC(=O)[C@@H](Cc2ccc(O)cc2)NC(=O)CSC[C@@H](C(N)=O)NC(=O)[C@H](CC(=O)O)NC(=O)[C@H](CCC(=O)O)NC(=O)[C@H](Cc2c[nH]c3ccccc23)NC(=O)[C@@H]2CCCN2C(=O)[C@H](CO)NC(=O)[C@H](C)NC(=O)[C@H](Cc2c[nH]c3ccccc23)NC(=O)[C@H](Cc2c[nH]c3ccccc23)NC(=O)[C@H](C(C)C)NC(=O)[C@H]([C@@H](C)O)NC1=O	cofactor-independent phosphoglycerate mutase W431C	biochemical	Mycoplasma orale			AC50	0.00794 µM
Cc1sc2c(c1C)C(c1ccc(Cl)cc1)=N[C@@H](CC(=O)NCCCNC(=O)c1cc([N+](=O)[O-])ccc1F)c1nnc(C)n1-2	Bromodomain-containing protein 4 (BRD4, Homo sapiens, UniProt O60885)	degrader, cell-based				DC50	0.459 µM
N=C(N)NCCC[C@H](NC(=O)[C@H](Cc1ccccc1)NC(=O)[C@@H]1CCCN1C(=O)[C@H](CO)NC(=O)[C@H](Cc1ccccc1)NC(=O)CNC(=O)[C@@H]1CCCN1C(=O)[C@@H]1CCCN1C(=O)[C@@H](N)CCCNC(=N)N)C(=O)N[C@@H](CCCCNS(=O)(=O)c1ccc(C2=c3cc4c5c(c3Oc3c2cc2c6c3CCCN6CCC2)CCC[N+]=5CCC4)c(S(=O)(=O)[O-])c1)C(=O)O	Oligopeptide-binding protein OppA (oppA, Lactococcus lactis subsp. lactis, UniProt Q07741)	binding, fluorescence anisotropy		pH 8, 24 °C, together with: dye-labelled peptide		Kd	20 ± 1 µM
CC(C)[C@@H]1NC(=O)[C@H](CO)NC(=O)[C@H](Cc2c[nH]c3ccccc23)NC(=O)[C@H](CCC(=O)O)NC(=O)[C@H](CC(=O)O)NC(=O)[C@H](Cc2ccc(O)cc2)NC(=O)[C@H](Cc2ccc(O)cc2)NC(=O)[C@H](Cc2c[nH]c3ccccc23)NC(=O)[C@H](Cc2c[nH]c3ccccc23)NC(=O)[C@H](CC(=O)O)NC(=O)CNC(=O)[C@H](CO)NC(=O)[C@@H](Cc2ccc(O)cc2)NC(=O)CSC[C@@H](C(N)=O)NC(=O)CNC(=O)[C@H](Cc2ccccc2)NC(=O)[C@H](C)NC1=O	cofactor-independent phosphoglycerate mutase W431C	biochemical	Mycoplasma orale			AC50	11.7 µM
CC[C@H](C)[C@H](NC(=O)[C@@H](CNC(=O)[C@@H]1CCCN1C(=O)[C@H](CCCNC(=N)N)NC(=O)[C@@H](N)CCCNC(=N)N)Cc1ccc(O)cc1)C(=O)N[C@@H](CC(C)C)C(=O)O	Neurotensin receptor type 2 (NTSR2, Homo sapiens, UniProt O95665)	ligand displacement, radioligand		cell membranes		Ki	5.6 µM
CC(=O)N[C@@H](CCCNC(=N)N)C(=O)N[C@@H](Cc1ccc(O)cc1)C(=O)N[C@H]1CCCNC(=N)NC(=O)NCCCCNC(=O)[C@H](Cc2ccc(O)cc2)NC(=O)[C@H](CCCNC(=N)N)NC(=O)[C@H](CC(C)C)NC1=O	Neuropeptide Y receptor type 5 (NPY5R, Homo sapiens, UniProt Q15761)	ligand displacement, radioligand				Ki	> 5 µM
CCCCCCCCCCCCCCCc1ccc(C(F)P(=O)(O)O)cc1 (racemic)	Autotaxin (ENPP2, Homo sapiens, UniProt Q13822)			free enzyme		Ki	4.97 µM
CC(=O)N[C@@H](CCCNC(=N)N)C(=O)N[C@@H](Cc1ccc(O)cc1)C(=O)N[C@@H](CCCN/C(N)=N/C(=O)NCCCCN)C(=O)N[C@@H](CC(C)C)C(=O)N[C@@H](CCCNC(=N)N)C(=O)N[C@@H](Cc1ccc(O)cc1)C(N)=O	Neuropeptide Y receptor type 1 (NPY1R, Homo sapiens, UniProt P25929)	ligand displacement, radioligand				Ki	4.83 µM
[2H]C([2H])(C)N1CCN(C2=Nc3cc(Cl)ccc3Nc3ccccc32)CC1	Muscarinic acetylcholine receptor M3 (CHRM3, Homo sapiens, UniProt P20309, A239G/Y149C)	calcium signal, agonist				EC50	0.0096 µM
